Measured values of several laboratories.
Protocols differ between the studies behind these lines. Several values in a cell are separate wells, animals, samples, runs or records. ± marks the error that the study gave.
Chain of UniProt P46734 (whole entry, looked up): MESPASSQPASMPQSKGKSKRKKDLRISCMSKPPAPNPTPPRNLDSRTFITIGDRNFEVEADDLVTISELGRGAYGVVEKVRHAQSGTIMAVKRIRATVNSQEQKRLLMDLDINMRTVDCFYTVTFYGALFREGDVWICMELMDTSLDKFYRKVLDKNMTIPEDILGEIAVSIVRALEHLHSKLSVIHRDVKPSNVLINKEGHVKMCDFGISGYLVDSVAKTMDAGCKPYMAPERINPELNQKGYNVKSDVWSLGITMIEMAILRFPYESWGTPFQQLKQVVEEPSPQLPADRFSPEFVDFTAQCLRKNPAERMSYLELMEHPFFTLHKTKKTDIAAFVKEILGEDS
Chain of UniProt P10721 (whole entry, unmodified, looked up): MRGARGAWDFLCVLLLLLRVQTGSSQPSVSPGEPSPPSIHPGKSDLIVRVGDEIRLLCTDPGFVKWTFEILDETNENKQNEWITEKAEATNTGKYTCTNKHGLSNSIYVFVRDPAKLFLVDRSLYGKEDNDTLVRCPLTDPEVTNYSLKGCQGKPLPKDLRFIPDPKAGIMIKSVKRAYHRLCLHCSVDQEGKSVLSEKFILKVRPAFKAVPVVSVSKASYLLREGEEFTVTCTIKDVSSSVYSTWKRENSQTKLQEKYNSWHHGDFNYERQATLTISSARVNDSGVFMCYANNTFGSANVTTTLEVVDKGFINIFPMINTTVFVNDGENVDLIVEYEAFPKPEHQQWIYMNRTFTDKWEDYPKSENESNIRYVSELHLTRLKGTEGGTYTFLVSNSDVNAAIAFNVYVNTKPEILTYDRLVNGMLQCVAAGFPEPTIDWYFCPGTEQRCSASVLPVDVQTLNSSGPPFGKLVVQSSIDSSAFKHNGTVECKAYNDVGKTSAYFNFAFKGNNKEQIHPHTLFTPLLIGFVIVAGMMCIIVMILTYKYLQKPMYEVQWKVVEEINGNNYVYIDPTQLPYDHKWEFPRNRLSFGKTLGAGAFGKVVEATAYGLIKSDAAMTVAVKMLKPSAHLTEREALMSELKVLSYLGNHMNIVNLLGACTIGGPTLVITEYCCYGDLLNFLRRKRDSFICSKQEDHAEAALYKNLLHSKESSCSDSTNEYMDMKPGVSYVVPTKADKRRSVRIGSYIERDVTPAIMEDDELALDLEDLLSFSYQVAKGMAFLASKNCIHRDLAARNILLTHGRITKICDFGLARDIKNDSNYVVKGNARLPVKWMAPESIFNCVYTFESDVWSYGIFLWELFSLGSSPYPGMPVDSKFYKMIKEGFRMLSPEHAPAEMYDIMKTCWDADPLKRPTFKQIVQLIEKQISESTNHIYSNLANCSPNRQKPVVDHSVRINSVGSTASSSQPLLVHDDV

CC(C)C12OC1C1OC13C1(C)CCC4=C(COC4=O)C1CC1OC13C2OC(=O)CCC(=O)OC1OC(CO)C(O)C(O)C1O (stereo not drawn) has an IC50 of 1.37 µM (HUVEC; cell growth or viability, XTT; 47 h).
Cc1cc(Oc2nc(N3CC[C@@H](c4ccncc4)C3)ncc2F)[nH]n1 has an IC50 of 44.7 µM (MDA-MB-435; cell proliferation; skin cancer).
With CC(C)[C@H]1NC(=O)C[C@H]2/C=C/CCSSC[C@@H](NC1=O)C(=O)N[C@H](Cc1cccc3ccccc13)C(=O)NCC(=O)O2 the inhibition was -5.5% (Mast/stem cell growth factor receptor Kit (KIT, Homo sapiens, UniProt P10721, D816E); enzyme activity, inhibitor; 10 µM).
For O=C1NC2(CC2)COc2ncc(F)cc2[C@H]2COCCN2c2ccn3ncc1c3n2, “organ-to-brain weight ratio” read 34.3 ± 8.38% (Sprague-Dawley rat, female, uterus; oral, 20 mg/kg/day, 4 weeks dosing, end of recovery).
COc1ccccc1-c1n[nH]c2nc(NC3CCN(C(=O)Cc4ccc(F)cc4F)CC3)ncc12 has a relative abundance of 1.12 (bead binding, competition bead pull-down, measured: LINJ.33.0600; Leishmania donovani axenic amastigote extract; 10 µM; baseline: vehicle).
CSCC[C@H](NC(=O)[C@@H](NC(=O)[C@H](CCC(N)=O)NC(=O)[C@H](CO)NC(=O)[C@@H](N)C(C)C)[C@@H](C)O)C(=O)N[C@@H](CCCNC(=N)N)C(=O)N[C@@H](CCC(N)=O)C(=O)N[C@H](C(=O)N[C@@H](C)C(=O)N[C@H](C(=O)N1CCC[C@H]1C(=O)N[C@@H](CC(C)C)C(=O)N[C@@H](CC(C)C)C(=O)N[C@@H](Cc1c[nH]c2ccccc12)C(=O)N[C@@H](Cc1ccccc1)C(=O)N[C@@H](Cc1c[nH]c2ccccc12)C(=O)N[C@H](C(=O)NCC(=O)N[C@@H](CO)C(=O)N[C@@H](CC(C)C)C(=O)NCCOCCOCCOCCOCCOCCOCCOCCOCCOCCOCCOCCOCCC(=O)N[C@@H](CS)C(N)=O)[C@@H](C)O)C(C)C)[C@@H](C)O gave a selectivity ratio of 27 ± 6 (H1993; phage binding; 10 min, 37 °C; baseline: control phage).
CC(C)(C)C(=O)OCOP(=O)(OCOC(=O)C(C)(C)C)C1CCCN(O)C1=O (stereo not drawn) gave a CC50 of greater than 100 µM (IGROV-1).
The GI50 of CC(C)Cc1ccc(C(C)C(=O)[O-])cc1.CC(C)Cc1ccc(C(C)C(=O)[O-])cc1.[Cu+2].c1ccncc1.c1ccncc1 (stereo not drawn) is reported as 7.5 µM (MRC5; cell growth or viability, MTT; 48 h).
CN(C)[C@H]1C[C@@]23CC[C@@]4(O2)C(=CC[C@]2(C)[C@@H](c5ccc6ccncc6c5)CC[C@H]24)C=C3[C@@H](O)[C@@H]1O gave an inhibition of 7.7% (Dual specificity mitogen-activated protein kinase kinase 3 (MAP2K3, Homo sapiens, UniProt P46734); ATP probe labelling, inhibitor, KiNativ profiling; 1 µM).
O=C(C[Se]C(=O)c1ccco1)Nc1cccc(C(F)(F)F)c1 has a TGI of 7.86 µM (NCI60 NSCLC subpanel mean; cell growth).
CC(C)[C@H](NC(=O)[C@H](CCCNC(=N)N)NC(=O)[C@@H]1CCCN1C(=O)[C@@H](NC(=O)[C@H](C)NC(=O)[C@H](Cc1ccc(O)cc1)NC(=O)[C@H](CCC(N)=O)NC(=O)[C@H](CCCCN)NC(=O)[C@H](CCCNC(=N)N)NC(=O)[C@@H]1CCCN1C(=O)[C@H](CCC(=O)O)NC(=O)[C@@H](NC(=O)[C@H](C)N)[C@@H](C)O)[C@@H](C)O)C(=O)N[C@@H](Cc1ccccc1)C(=O)N[C@@H](Cc1c[nH]c2ccccc12)C(=O)N[C@H](C(=O)N[C@@H](CC(=O)O)C(=O)N[C@@H](C)C(=O)N1CCC[C@H]1C(=O)NCC(=O)NCCOCCOCCOCCOCCOCCOCCOCCOCCOCCOCCOCCOCCC(=O)N[C@@H](CS)C(N)=O)[C@@H](C)O gave a selectivity ratio of 0.83 ± 0.21 (H460 lung large cell carcinoma; cell binding, phage binding, measured: output/input phage; 10 min, 37 °C; baseline: control phage).
For C#CCN1C(=O)C(CC#C)(C(=O)OCC)Oc2ccccc21 (stereo not drawn), the inhibition was 0.46% (L02; cell growth or viability, CCK-8; 6.25 µM, 72 h).
O=C(O)c1ccc(-c2nc(-c3ccccc3Cl)c3sccn23)cc1 has a CD61-positive cells of 15.2% and 16.1% (K562; megakaryocyte differentiation, flow cytometry; 0.1 mM, 24 h).
CCOC(=O)C1(Cc2ccccc2)Oc2cc(F)ccc2N(Cc2ccccc2)C1=O (stereo not drawn) has an inhibition of 0.51% (HaCaT; cell growth or viability, CCK-8; 50 µM, 72 h).
With COc1ccccc1-c1n[nH]c2nc(N[C@H]3CC[C@H](NS(=O)(=O)CC(C)C)CC3)ncc12 the relative abundance was 0.53 (bead binding, competition bead pull-down, measured: LINJ.36.6110; Leishmania donovani extract; 10 µM; baseline: vehicle).

A few entries again:
O=C(O)c1ccc(-c2nc(-c3ccccc3Cl)c3sccn23)cc1 has a CD61-positive cells of 15.2% and 16.1% (K562; megakaryocyte differentiation, flow cytometry; 0.1 mM, 24 h).
CC(C)C12OC1C1OC13C1(C)CCC4=C(COC4=O)C1CC1OC13C2OC(=O)CCC(=O)OC1OC(CO)C(O)C(O)C1O (stereo not drawn) has an IC50 of 1.37 µM (HUVEC; cell growth or viability, XTT; 47 h).
